# Values quoted from earlier work that unrelated publications cite.
# “And” joins repeats or separate records; there may be more than shown. ± gives the spread as reported.
SMILES,target or system,test,system,conditions,how to read,endpoint,value
CC1CCN(C(=O)c2cccc(NC(=O)Nc3ccc(Cl)cc3)c2)CC1,HepG2,,,100 µM,,viability,84.2 ± 15.3%
COc1cc2c(cc1OC)C(c1c[nH]c3ccccc13)NCC2 (stereo not drawn),COLO 320 ABCB1-resistant colon,cytotoxicity,,,,IC50,60.4 µM
Cc1[nH]c2ccccc2c1CC(=O)N[C@@H](Cc1ccccc1)C(=O)N(C)c1ccccc1,TZM-GFP,,,,,CC50,76 ± 9 µM
CCN(CC)C(=O)CC(NC(=O)CCc1ccccc1)C(=O)NC(Cc1ccc(F)cc1)C(=O)NC(Cc1ccc(F)cc1F)C(=O)C1(C)CO1 (stereo not drawn),HepG2,,,,,CC50,> 20 µM
Oc1c(Br)cc(Br)c2nc3cc(Cl)ccc3nc12,human red blood cells,,,200 µM,,hemolysis,≤ 1%
Oc1c(Cc2c[nH]c3ccccc23)cc(Cl)c2cccnc12,MRC-5 normal embryonic fibroblasts,,,concentration not given,,cytotoxicity,not toxic
COC1=CC(c2ccc[nH]2)=NC1=CNC(C)(C)C.Cl,HepG2,cytotoxicity,,,,IC50,5.4 µg/mL
CCCCCC(=O)N[C@@H](Cc1c[nH]c2ccccc12)C(=O)N[C@@H](CCCC)C(=O)N[C@@H](CC(C)C)C(=O)[C@@]1(C)CO1,HepG2 cells,cell viability,,,,CC50,0.0032 ± 0.0013 µM
CN(C(=O)[C@H](Cc1ccccc1)NC(=O)Cc1c[nH]c2ccc(O)cc12)c1ccccc1,TZM-GFP,,,,,CC50,55 ± 2 µM
CCCCCC(=O)N[C@@H](Cc1ccccc1)C(=O)N[C@@H](CCCC)C(=O)N[C@@H](CC(C)C)C(=O)[C@@]1(C)CO1,HepG2 cells,cell viability,,,,CC50,0.022 ± 0.008 µM
Cc1onc(-c2ccc(F)cc2)c1C(=O)N[C@H](C(=O)Nc1cccc(C(N)=O)c1)c1ccc(OCc2ccccc2)cc1,HeLa,cytotoxicity,,,,CC50,> 50 µM
Cc1c(CC(=O)N[C@@H](Cc2ccccc2)C(=O)N(C)c2ccc(Cl)cc2)c2ccccc2n1C(C)C,TZM-GFP,,,,,CC50,14 ± 2 µM
COc1ccc(Nc2nc(Nc3ccc(OCC[18F])cc3)ncc2Br)cc1,,,S180 tumour-bearing mice,"intravenous, 30 min",relative to: tumour over muscle,tumour to tissue ratio,2.14
CCCCCC(=O)N[C@@H](Cc1ccc(NC(=O)OC(C)(C)C)cc1)C(=O)N[C@@H](CCCC)C(=O)N[C@@H](Cc1ccccc1)C(=O)[C@@]1(C)CO1,HepG2 cells,cell viability,,,,CC50,0.478 ± 0.126 µM
Cc1c(CC(=O)N[C@@H](Cc2ccccc2)C(=O)N(C)c2ccccc2)c2ccccc2n1C(C)C,TZM-GFP,,,,,CC50,16 ± 1 µM
O=C1NC(=O)/C(=C/c2ccc3ncnc(N4CCC(F)CC4)c3n2)S1,Caco-2,,,,,efflux ratio,1.5 to 1.9
CCOC(=O)C(c1cc(Cl)c2cccnc2c1O)c1c[nH]c2ncccc12 (stereo not drawn),COLO 205,cell viability,,,,IC50,8.11 µM
Cc1nc(-c2ccc(F)cc2)sc1C(=O)N[C@H](C(=O)Nc1cccc(C(N)=O)c1)c1ccc(OCc2ccccc2)cc1,HeLa,cytotoxicity,,,,CC50,> 100 µM
Oc1c(C(c2ccccc2)c2c[nH]c3ccccc23)cc(Cl)c2cccnc12 (stereo not drawn),COLO 320 ABCB1-resistant colon,cytotoxicity,,,,IC50,2.78 µM and 2.55 µM and 2.84 µM
CCCCCC(=O)N[C@@H](Cc1ccccc1)C(=O)N[C@@H](CCCC)C(=O)N[C@@H](Cc1ccccc1)C(=O)[C@@]1(C)CO1,HepG2 cells,cell viability,,,,CC50,0.031 ± 0.014 µM
CCOC(=O)C(c1cc(Cl)c2cccnc2c1O)c1c[nH]c2ccccc12 (stereo not drawn),COLO 320 ABCB1-resistant colon,cytotoxicity,,,,IC50,4.83 µM and 4.96 µM and 4.64 µM
COC1=CC(c2ccc[nH]2)=NC1=CNC12CC3CC(CC(C3)C1)C2,HepG2,cytotoxicity,,,,IC50,3.3 µM
CCOC(=O)C(c1ccc2ccccc2c1O)c1c[nH]c2ccccc12 (stereo not drawn),COLO 320 ABCB1-overexpressing,cell viability,,,,IC50,53.6 µM
CCn1c(C)c(CC(=O)N[C@@H](Cc2ccccc2)C(=O)N(C)c2ccc(F)cc2)c2ccccc21,TZM-GFP,,,,,CC50,19 ± 2.5 µM

# A few entries again:
SMILES,target or system,test,system,conditions,how to read,endpoint,value
CCCCCC(=O)N[C@@H](Cc1ccc(NC(=O)OC(C)(C)C)cc1)C(=O)N[C@@H](CCCC)C(=O)N[C@@H](Cc1ccccc1)C(=O)[C@@]1(C)CO1,HepG2 cells,cell viability,,,,CC50,0.478 ± 0.126 µM
